Published values pooled from the literature.
A part holds a random share of what one study measured.

Sample 1 — method: RNA Bind-n-Seq; form: RNA; sample: in vitro; concentration: 365 nM; reference: no-protein control; direction: higher = stronger binding
Target: RNA binding protein fox-1 homolog 2, RRM domain, GST-SBP tag (RBFOX2, Homo sapiens, UniProt O43251-10, residues 100-194)
Notes: natural RNA segment, single round, ends assumed
Residues (chain): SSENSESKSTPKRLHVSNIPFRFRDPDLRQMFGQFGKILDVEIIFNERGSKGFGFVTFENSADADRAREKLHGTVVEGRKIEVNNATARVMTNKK
`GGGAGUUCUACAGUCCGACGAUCAGGGUUGCCAAUAGAACACUGUGUCCCAGCUGCCCCCAACUUGCCAGAAGAACCAGCACUUACUUCUUUCUCUAGUUCUUAUGUUCAGAAUGUGGUAUUGGCCCUGGCCUUGGAAUUCUCGGGUGCCAA` — result for “RBNS enrichment (R)”: 0.749.
For `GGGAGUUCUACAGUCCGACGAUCUUUUUAACUGAAAGAUUAUUUCUAGAUGGGUAGUGCUUUGUGCUGGUUUCUGCUUCCAUAUAUUUCCCAGUCAUUUUAAUUAGAGAAGAUACUCUAUGGUAGAACUAAGGUGGAAUUCUCGGGUGCCAA`, “RBNS enrichment (R)” read 0.529.
Under “RBNS enrichment (R)”, `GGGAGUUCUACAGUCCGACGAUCAAGCUAAGUAAUUUUAUUUAAUAUGAUUACAUGUCGUCAGUCAUGAGUGAGGUGUAGGGAGUCUCCCUCCCCAAGUGGCCAUGUUUACAGAGUGUUGUCUACAAAGUGCAUGGAAUUCUCGGGUGCCAA` is recorded as 0.574.
`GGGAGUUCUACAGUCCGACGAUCGACUUUGUCUGAGCUCAUGACAACAUAUUGCAAAUGGCCGGGCCACUCGUGGCCAGACGGACAGCACUCCUGGCCAGAUGGACCCACCAGUAUCAGCGAGGAGGGGCUUGUGGAAUUCUCGGGUGCCAA`: “RBNS enrichment (R)” 2.41.
`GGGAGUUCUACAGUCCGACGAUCCCCCACCACCAUAGUUUUGUGCUAUCCUAGUUUCUGUUAAGAUUGGUGCUAUCCAAUUCCCAUCACUAGGAGGUGGCUGAGCUUGAGGCUUGCCAGACACAGGAAUGGCCUGGAAUUCUCGGGUGCCAA`: “RBNS enrichment (R)” 0.211.
Under “RBNS enrichment (R)”, `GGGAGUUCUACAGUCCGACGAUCAGGGACUUUUUUUGAAUCCUCAGUGGCAUUUUUUUAAGGGAAAUAUGCAGAGUGGAUAUCUGGGUGGGUUGGGCCACAAGAUUGGAUUUUGGUUCCACUUGGACAACAAAUGGAAUUCUCGGGUGCCAA` is recorded as 0.733.
`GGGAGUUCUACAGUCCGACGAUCAGGGGCAGGGGCCCACCGCACACCCUUGUCCCGGGCCUGUCUGGGACUGGCCUUCCCGGCUCAGCCAGUGAGGCUCAGAAGGGACACAAAGAGGGAUGGAAGAAAAGAACUGGAAUUCUCGGGUGCCAA` — result for “RBNS enrichment (R)”: 0.394.
Under “RBNS enrichment (R)”, `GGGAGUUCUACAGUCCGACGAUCGAACGAAUUGAUGUGUAACUGUAUGCAGACUGGUUGUAGUGGAACAAAUCUGAUAACUAUGCAGGUUUAAAUUUUCUUAUCUGAUUUUGGUAAGUAUUCCUUAGGUUUUUUGGAAUUCUCGGGUGCCAA` is recorded as 1.86.

Sample 2 — method: protein-binding microarray; form: double-stranded DNA, one strand shown; sample: in vitro; concentration: 2200 nM top; notes: 60-bp whole probe; together with: salmon DNA 0.4 mg/ml; reference: random background probes; direction: higher = stronger binding; constant ends, left off below: GCCTAGCAC … GTCTTGATTCGCTTGACGCTGCTG
Target: Interferon regulatory factor 7, full length, phosphomimetic (IRF7, Homo sapiens, UniProt Q92985, residues 1-503, S471D/S472D/S475D/S476D/S477D/S483D/S484D/S487D)
UniProt Q92985, sequence (whole entry, unmodified, looked up): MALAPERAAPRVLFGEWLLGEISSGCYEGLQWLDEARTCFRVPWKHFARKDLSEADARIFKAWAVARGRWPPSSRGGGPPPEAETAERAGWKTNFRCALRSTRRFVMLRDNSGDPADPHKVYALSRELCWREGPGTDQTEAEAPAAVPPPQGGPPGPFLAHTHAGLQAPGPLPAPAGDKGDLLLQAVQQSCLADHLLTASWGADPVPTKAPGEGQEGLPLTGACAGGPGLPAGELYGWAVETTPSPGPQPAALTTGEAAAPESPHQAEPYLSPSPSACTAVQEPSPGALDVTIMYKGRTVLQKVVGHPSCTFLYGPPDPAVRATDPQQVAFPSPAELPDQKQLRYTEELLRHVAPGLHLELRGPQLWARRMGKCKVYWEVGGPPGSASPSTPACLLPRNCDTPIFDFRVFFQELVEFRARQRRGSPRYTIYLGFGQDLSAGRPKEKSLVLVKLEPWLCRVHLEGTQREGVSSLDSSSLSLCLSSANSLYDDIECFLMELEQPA
For `TTAGGCATCGGGACTGGGTTAGTGCTA`, “fitted relative affinity” read -0.883 z-score.
`GACGGACTGGGGTTTCGCGACGTGCTA`: “fitted relative affinity” -0.239 z-score.
Under “fitted relative affinity”, `GACGAACTGGGGTATCGAGGCGTGCTA` is recorded as -0.0435 z-score.
Under “fitted relative affinity”, `GGATATATATCATTTAATTAGTGCTAG` is recorded as 0.151 z-score.
Under “fitted relative affinity”, `TTAGGTTTCCTGATCCTTTAGTGCTAG` is recorded as 1.46 z-score.
`TCATGTGTACATCTCTCACTGTGCTAG`: “fitted relative affinity” 1.19 z-score.
Under “fitted relative affinity”, `GAAGATTTCAGTATCGAGACGTGCTAG` is recorded as 0.218 z-score.
For `GACGGACTGGGGTTTCCGGACGTGCTA`, “fitted relative affinity” read -0.549 z-score.
`CTAGGTCTCCTTTTCCTTTAGTGCTAG` — result for “fitted relative affinity”: 1.99 z-score.
`TTAGGACTGCTTTTCCTTTGGTGCTAG` — result for “fitted relative affinity”: 1.93 z-score.
For `TTAGAACTGCTTCTCCTTTAGTGCTAG`, “fitted relative affinity” read 0.853 z-score.
`GACGGACTGCGACTGCTGACGTGCTAG`: “fitted relative affinity” -0.601 z-score.
Under “fitted relative affinity”, `TGAACTAGCGGGTCTTGCAGTGTGCTA` is recorded as -0.6 z-score.
For `TTAGGGATCGGACTGGGTTAGTGCTAG`, “fitted relative affinity” read -0.619 z-score.
For `GACGGACTGCTATTCCTGACGTGCTAG`, “fitted relative affinity” read 0.435 z-score.
`GACGAACTGGGGTTTCGAGAGGTGCTA`: “fitted relative affinity” 0.58 z-score.
`ATATGTAAGATATCCATATGGTGCTAG`: “fitted relative affinity” 0.255 z-score.
`TTAGGTATCAGACTGGATTAGTGCTAG` — result for “fitted relative affinity”: -0.17 z-score.
Under “fitted relative affinity”, `GACGGTTTCCTTCTCCTGTCGTGCTAG` is recorded as 3.59 z-score.

Sample 3 — method: protein-binding microarray; form: double-stranded DNA, one strand shown; sample: in vitro; concentration: 0.8 µM; notes: whole 60-bp probe, no competitor; direction: higher = stronger binding
Target: Centromere-binding protein 1, full length, N-terminal tag (CBF1, Saccharomyces cerevisiae, UniProt P17106, residues 1-351)
UniProt P17106, sequence (whole entry, looked up): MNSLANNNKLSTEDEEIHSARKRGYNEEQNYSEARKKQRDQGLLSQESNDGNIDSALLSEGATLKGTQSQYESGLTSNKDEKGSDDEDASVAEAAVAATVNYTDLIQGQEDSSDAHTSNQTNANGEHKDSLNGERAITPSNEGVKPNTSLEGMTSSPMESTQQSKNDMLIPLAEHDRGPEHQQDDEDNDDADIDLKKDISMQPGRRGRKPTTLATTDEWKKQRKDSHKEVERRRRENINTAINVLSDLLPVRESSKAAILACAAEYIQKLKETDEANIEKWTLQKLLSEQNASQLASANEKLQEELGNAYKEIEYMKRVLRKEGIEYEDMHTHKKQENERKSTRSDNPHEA
For `CTAAAACGAATAACGGTGGTGATCCCGCGGCTTTTCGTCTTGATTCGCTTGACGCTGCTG`, the fluorescence intensity was 500 a.u.
`GAAAAGAATCTCTTGCACGTGACGGTTTACTAATAGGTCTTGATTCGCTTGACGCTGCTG` has a fluorescence intensity of 12500 a.u.
`GAAAGTGATCTTGGTCACATGATATACGCGTGATAGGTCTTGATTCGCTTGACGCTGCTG` gave a fluorescence intensity of 8710 a.u.
`GAAGGGTATGCGTTTCATGTGCGTGGGGAAAGTTAGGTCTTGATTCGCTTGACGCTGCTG` has a fluorescence intensity of 559 a.u.
`CTACAATATACATCCTACGTGCACAACGAACAATTCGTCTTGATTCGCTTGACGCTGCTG` gave a fluorescence intensity of 552 a.u.
`GAATCTTGTCGTAGTAGCGTGATTCTATTCAGTTAGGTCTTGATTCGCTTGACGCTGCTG` gave a fluorescence intensity of 795 a.u.
`GAACCAGAGCCAACCCAGGTGAGACTGGATGCTTAGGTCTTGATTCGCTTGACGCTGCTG` has a fluorescence intensity of 488 a.u.
`CTAGAAACTTGATAACGCACGCTAAACGATAACTTCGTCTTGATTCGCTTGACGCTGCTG` has a fluorescence intensity of 513 a.u.
For `TGTACGAAGCTATAATGTCAGTTTATAGTAGTTAGGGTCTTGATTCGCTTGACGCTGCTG`, the fluorescence intensity was 558 a.u.
The fluorescence intensity of `CTAATCTCTAAGTACACGTGCATTTGGACCTATTTCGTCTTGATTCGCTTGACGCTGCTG` is reported as 4780 a.u.
`CTAACCTACACTTGCCTCGTGGCGGGAAACTGCTTCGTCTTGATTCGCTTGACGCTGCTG` has a fluorescence intensity of 575 a.u.
`CTAAAAAAAAACAAATACATCAGAGCAAGACACTTCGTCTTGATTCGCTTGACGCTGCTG` gave a fluorescence intensity of 539 a.u.
`GAAAATCATTATCGTGGTGCACCAGCAGTATTATAGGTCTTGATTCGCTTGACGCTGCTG` gave a fluorescence intensity of 525 a.u.
`CTAGAACGAGTTTTGCCCGTGCTCCCCATGACTTTCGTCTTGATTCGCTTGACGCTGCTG` gave a fluorescence intensity of 554 a.u.
`GAAGATTGCATACATGATGTTATCGAGGCGTATTAGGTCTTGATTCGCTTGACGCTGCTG` has a fluorescence intensity of 532 a.u.
The fluorescence intensity of `CCTAACTACTATAGCTACCACATATAGCTTCGTACAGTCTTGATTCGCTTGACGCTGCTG` is reported as 522 a.u.
`CTAATTTGATCATTGTACGTGATGAATCCATGTTTCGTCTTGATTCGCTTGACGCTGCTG` has a fluorescence intensity of 628 a.u.
`GAACAGCCCTTTCATCACCTTCCTTACAGGGGTTAGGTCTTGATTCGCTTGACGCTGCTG` has a fluorescence intensity of 518 a.u.
`TGTACGAAGCTATATCAGGTGGATATAGTAGTTAGGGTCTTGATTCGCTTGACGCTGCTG` has a fluorescence intensity of 724 a.u.

Sample 4 — method: RNA Bind-n-Seq; form: RNA; sample: in vitro; concentration: not given; reference: input RNA pool; direction: higher = stronger binding
Target: RING finger protein unkempt homolog, zinc fingers 1-6, GST-SBP tag (UNK, Homo sapiens, UniProt Q9C0B0, residues 30-357)
UniProt Q9C0B0, sequence (30-357, looked up): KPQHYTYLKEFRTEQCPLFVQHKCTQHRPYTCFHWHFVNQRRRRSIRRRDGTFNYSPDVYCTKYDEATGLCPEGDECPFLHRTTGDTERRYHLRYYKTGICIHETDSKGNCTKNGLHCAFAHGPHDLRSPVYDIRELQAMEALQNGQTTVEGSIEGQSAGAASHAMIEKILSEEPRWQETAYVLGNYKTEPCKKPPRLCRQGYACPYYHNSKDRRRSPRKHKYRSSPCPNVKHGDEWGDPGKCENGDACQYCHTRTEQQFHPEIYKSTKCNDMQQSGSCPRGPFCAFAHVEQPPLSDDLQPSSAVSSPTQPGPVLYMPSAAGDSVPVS
Notes: RNA with constant flanks, human and mouse sites, ends assumed
`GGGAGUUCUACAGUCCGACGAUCAGAUCCGCUGCUGCCGAGGAGAGGAGCGUCAACUGCGGCACCAUGGUAGCUCAACCGAAGAACCUUGAGGGCUAUGUGGGCUUUGCCAACCUCCCAAAUCAAGUGUACAGAAAAUCCGUGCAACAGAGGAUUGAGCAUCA` gave a bound/input enrichment of 0.265 ratio.
The bound/input enrichment of `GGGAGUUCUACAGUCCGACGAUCACUCAGAAGCCGAUUCAUCAGCUUUUUGAUUACAUCUGUGGAGUAAGCACAGGGGCCAUAUUAGCAUUUAUGCUGGGAUUGUUUCACAUGCCGCUGGAUGAAUGUGAGGAACUCUAUCGACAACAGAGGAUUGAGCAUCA` is reported as 0.324 ratio.
`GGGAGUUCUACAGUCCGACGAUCGAAAAACCAUCUCCUAUCCAGGAGGAGAGCAUUCCCAUUGCUUUAUCUGGUAGGGAUAUCUUAGCUAGAGCAAAAAAUGGAACAGGCAAAAGCGGUGCCUACCUCAUCCCCUUACUUGAACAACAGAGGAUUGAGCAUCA` gave a bound/input enrichment of 0.828 ratio.
With `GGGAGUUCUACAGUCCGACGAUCUCUCCAAAAUCUGAUAUCUCUCCACUCACCCCACGAGAGUCCUCUCCUUUAUAUUCACCUACUUUUUCAGAUUCUACCUCUGCAGUCAAAGAGAAAACAGCAACUUGCCACAGUUCCUCUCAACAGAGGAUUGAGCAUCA` the bound/input enrichment was 0.603 ratio.
With `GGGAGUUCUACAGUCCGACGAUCUGCCUCAAGCUGCUGAAGGAAUUUAAACGGAAUGACCAUGAUGAUGACGAGGACGAGGAGGUCAUCUCCAAGACAGUGCCUCCAGUGGACAUUGUGUUCGAGCGGGAUAUGCUCACACAGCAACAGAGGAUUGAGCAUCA` the bound/input enrichment was 0.138 ratio.
The bound/input enrichment of `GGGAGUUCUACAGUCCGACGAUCACUCUAAAAAAGAACCGAGUGGUGCUAGCCAAACAGCUGUUGUUGAGCGAAUUGUUAGAACAUCUUCUGGAGAAGGACAUCAUCACCUUGGAAAUGAGGGAGCUCAUCCAGGCCAAAGUGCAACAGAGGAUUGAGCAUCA` is reported as 0.304 ratio.
With `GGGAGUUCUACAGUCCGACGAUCAGCAGGAAGAACGUGCUUGGCCACAUGCAGCAGGGUGGAAGCCCAACUCCCUUUGACAGGAAUUUUGCCACUAAGAUGGGUGCUAAGGCUAUGAACUGGAUGUCUGGGAAAAUCAAGGAGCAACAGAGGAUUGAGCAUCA` the bound/input enrichment was 0.236 ratio.
With `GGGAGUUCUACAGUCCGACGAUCGCCUGCCUGCAGGCCUCCCGAGGAGCCCAGACAGCUGCAGCCACAGCUCCCCGUAUCAAGAAAUUUGCCAUCUAUCGAUGGGACCCAGACAAGGCUGGAGACAAACCUCAUAUGCAGACUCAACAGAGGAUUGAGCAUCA` the bound/input enrichment was 0.237 ratio.

A few entries again (sample 2):
For `TTAGAACTGCTTCTCCTTTAGTGCTAG`, “fitted relative affinity” read 0.853 z-score.
`GACGGACTGCGACTGCTGACGTGCTAG`: “fitted relative affinity” -0.601 z-score.
Under “fitted relative affinity”, `TGAACTAGCGGGTCTTGCAGTGTGCTA` is recorded as -0.6 z-score.
For `TTAGGGATCGGACTGGGTTAGTGCTAG`, “fitted relative affinity” read -0.619 z-score.
For `GACGGACTGCTATTCCTGACGTGCTAG`, “fitted relative affinity” read 0.435 z-score.
`GACGAACTGGGGTTTCGAGAGGTGCTA`: “fitted relative affinity” 0.58 z-score.
`ATATGTAAGATATCCATATGGTGCTAG`: “fitted relative affinity” 0.255 z-score.
